Experimental data of several laboratories.
Each numbered part is a random draw from the data of one study; scales do not carry over between parts.

Sample 1
Target: UBE2L6 UBC core domain (UniProt O14933)
UniProt O14933, sequence (whole entry, looked up): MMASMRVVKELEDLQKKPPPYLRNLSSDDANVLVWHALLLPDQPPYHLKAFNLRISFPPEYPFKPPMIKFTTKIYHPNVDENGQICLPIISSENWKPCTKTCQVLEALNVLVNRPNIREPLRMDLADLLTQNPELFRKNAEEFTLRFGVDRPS
Method: yeast two-hybrid
Matrix: yeast
Setting: mostly zero background
Relative to: not given
Direction: higher = stronger interaction
B1: TRIM62 RING domain (UniProt Q9BVG3); chain MACSLKDELLCSICLSIYQDPVSLGCEHYFCRRCITEHWVRQEAQGARDCPECRRTFAEPALAP
B2: RNF19A RING domain (UniProt Q9NV58); chain ISKQIGDFIECPLCLLRHSKDRFPDIMTCHHRSCVDCLRQYLRIEISESRVNISCPECTERFNPHDIR
B3: RNF121 RING domain (UniProt Q9H920); chain MPTKHLSDSVCAVCGQQIFVDVSEEGIIENTYRLSCNHVFHEFCIRGWCIVGKKQTCPYCKEKVDLKRMFS
B4: MAP3K1 RING domain (UniProt Q13233); chain NSIKDEEEQMCPICLLGMLDEESLTVCEDGCRNKLHHHCMSIWAEECRRNREPLICPLCRSKWRSHDFYS
B5: SH3RF1 RING domain (UniProt Q7Z6J0); chain DESALLDLLECPVCLERLDASAKVLPCQHTFCKRCLLGIVGSRNELRCPECRTLVGSGVEEL
B6: RBCK1 RING domain (UniProt Q9BYM8); chain SLVLNTEPAECPVCYSVLAPGEAVVLRECLHTFCRECLQGTIRNSQEAEVSCPFIDNTYSCSGKLLEREIK
B7: UBOX5 RING domain (UniProt O94941); chain EQPGSILGPECASCKRVFSPYFKKEPVYQLPCGHLLCRPCLGEKQRSLPMTCTACQRPVASQDVLR
Sequence | lacZ reporter activity
NLSELTPYILCSICKGYLIDATTITECLHTFCKSCIVRHFYYSNRCPKCNIVVHQTQPLY (PCGF6 RING domain (UniProt Q9BYE7)) | 0
B1 (TRIM62 RING domain) | 0
YQNEVDDDLVCHICLQPLLQPLDTPCGHTFCYKCLRNFLQEKDFCPLDRKRLHFKLCKK (LNX2 RING domain (UniProt Q8N448)) | 0
B2 (RNF19A RING domain) | 0
B3 (RNF121 RING domain) | 0
B4 (MAP3K1 RING domain) | 16800
B5 (SH3RF1 RING domain) | 0
B6 (RBCK1 RING domain) | 0
FDGDVDPDLKCALCHKVLEDPLTTPCGHVFCAGCVLPWVVQEGSCPARCRGRLSAKELN (PDZRN3 RING domain (UniProt Q9UPQ7)) | 0
AVPSGLEENLCKICMDSPIDCVLLECGHMVTCTKCGKRMNECPICRQYVIRAVHVF (RFFL RING domain (UniProt Q8WZ73)) | 0
B7 (UBOX5 RING domain) | 0
KETIKKTTKPCPRCHVPVEKNGGCMHMKCPQPQCRLEWCWNCGCEWNRVCMG (PRKN RING domain (UniProt O60260)) | 0
PEDRESLKSACVVCLSSFKSCVFLECGHVCSCTECYRALPEPKKCPICRQAITRVIPLY (MUL1 RING domain (UniProt Q969V5)) | 14700

Sample 2
Target: Fragile X messenger ribonucleoprotein 1, C-terminal low-complexity region (Fmr1, Mus musculus, UniProt P35922)
Method: RNA Bind-n-Seq
Molecule type: RNA
Matrix: in vitro
Concentration: 200 nM
Setting: whole 134-nt RNA, ends assumed
Together with: 150 mM KCl
Relative to: input library
Direction: higher = stronger binding
Sequence | log2 enrichment
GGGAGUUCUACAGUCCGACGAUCAAGUCCUGUGCUACACAUCGUAUGUACCGAAUCGGUUUUUGGAAAAAAAGGAAAGGAAAGUAUUAUGUUACGCCGUUCGGAUCUGCACUUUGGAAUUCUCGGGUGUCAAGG | -1.14
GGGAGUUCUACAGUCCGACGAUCAAGUCCUGUGCUACACAUCGUAUGUACCGAAUCGGGAAAAAGGGAGGGAAAAAGGGAAAGUAUUAUGUUACGCCGUUCGGAUCUGCACUUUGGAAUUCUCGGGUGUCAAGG | 0.477
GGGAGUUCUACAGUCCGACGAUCUGGCCCUGGUGGCAUGCGGGGAGGAAGAGGUGGCCUCAUGGAUCGUGGUGGUCCCGGUGGAAUGUUCAGAGGUGGUCGUGGUGGAGACAGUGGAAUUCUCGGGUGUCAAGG | 0.214
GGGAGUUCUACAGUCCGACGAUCUUUAGGUGUUAGACGGUACCGACAACCAGUAUUUGGGCCUGCAGAUUGGACAGCCCCAGGAUGAAGAUGAGGAAGCCACAGGUAUUCUUCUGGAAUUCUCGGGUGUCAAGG | -1.92
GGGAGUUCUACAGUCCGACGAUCAGUCCUGUGCUACACAUCGUAUGUACCGAAUCGGGCCCCCGGGCCCCCGGCCCCCGGAAAGUAUUAUGUUACGCCGUUCGGAUCUGCACUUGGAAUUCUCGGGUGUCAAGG | -0.395
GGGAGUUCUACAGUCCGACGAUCUGGCCCUGGUGGCAUGCGGGGAGGAAGAGAUGGCCUCAUGGAUCGUGGUGGUCCCGGUGGAAUGUUCAGAGGUGGCCGUGGUGGAGACAGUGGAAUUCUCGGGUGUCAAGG | -0.111
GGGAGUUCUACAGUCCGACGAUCACCAUGCGGGUGGGCAUCUUUGGGAAGUGGGGCAAGGGGGGGAUAGGGAGGGGGGUAACACUUUGGGAACAGGUGGUCCCAGGUCGUUUCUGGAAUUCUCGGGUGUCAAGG | 0.422
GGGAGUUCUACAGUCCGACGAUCUGGCCCUGGUGGCAUGCGGGGAAGAAGAGGUGGCCUCAUGGAUCGUGGUGGUCCCGGUGGAAUGUUCAGAGGUGGCCGUGGUGGAGACAGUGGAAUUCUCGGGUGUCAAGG | 0.0881
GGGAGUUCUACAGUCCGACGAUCAGUCCUGUGCUACACAUCGUAUGUACCGAAUCGGGUUUUUUUGGGAGGGAAAAAGGGAAAGUAUUAUGUUACGCCGUUCGGAUCUGCACUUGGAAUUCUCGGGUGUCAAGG | 0.361

Sample 3
Target: Sal-like protein 4, full length isoform B (SALL4, Homo sapiens, UniProt Q9UJQ4-2, residues 1-616)
Method: universal PBM
Molecule type: double-stranded DNA, one strand shown
Matrix: in vitro
Concentration: not given
Setting: 8-mer, flanks averaged, mean of replicates
Direction: higher = stronger binding
Construct (chain): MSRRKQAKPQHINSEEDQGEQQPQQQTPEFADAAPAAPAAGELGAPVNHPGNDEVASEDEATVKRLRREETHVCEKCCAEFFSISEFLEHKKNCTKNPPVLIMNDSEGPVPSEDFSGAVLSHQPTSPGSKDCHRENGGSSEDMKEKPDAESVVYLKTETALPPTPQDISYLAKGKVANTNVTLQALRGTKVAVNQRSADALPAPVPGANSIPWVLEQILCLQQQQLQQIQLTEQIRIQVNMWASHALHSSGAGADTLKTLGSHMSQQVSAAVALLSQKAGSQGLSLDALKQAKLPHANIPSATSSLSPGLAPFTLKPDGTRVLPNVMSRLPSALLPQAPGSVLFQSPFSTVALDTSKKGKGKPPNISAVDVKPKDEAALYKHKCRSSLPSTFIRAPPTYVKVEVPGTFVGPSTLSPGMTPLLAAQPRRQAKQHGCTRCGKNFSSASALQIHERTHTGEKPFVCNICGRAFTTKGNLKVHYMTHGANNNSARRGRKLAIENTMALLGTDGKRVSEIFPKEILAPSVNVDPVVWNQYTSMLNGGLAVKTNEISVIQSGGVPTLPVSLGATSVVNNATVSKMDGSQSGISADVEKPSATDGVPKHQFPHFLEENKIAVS
Sequence | E-score
CTGAACGC | -0.115
AAATGCGT | 0.206
GATCGACA | 0.00995
ACTGTTAC | 0.0852
CGTTCATA | 0.251
AACCAGTT | 0.141
CGCGAGAC | -0.0878
CATGACAG | -0.11
AACCTGTA | 0.164
ACCGGTGG | -0.333
ATAATGAT | 0.347
CATTCACC | 0.0324
CCTTCTAG | -0.0746
AGGACCTA | 0.0241
AAGAGCCA | -0.138
AGTCTCGC | -0.102
CGTGGAAG | -0.0881
TAAATTGA | 0.271
ATCTCTCC | -0.101
CTGCATCA | 0.0368
CAAATGTG | 0.184
ACTATTAC | 0.213
TAACAGGA | 0.174

Sample 4
Target: RNA binding protein fox-1 homolog 2, RRM domain, GST-SBP tag (RBFOX2, Homo sapiens, UniProt O43251-10, residues 100-194)
Method: RNA Bind-n-Seq
Molecule type: RNA
Matrix: in vitro
Concentration: 365 nM
Setting: natural RNA segment, single round, ends assumed
Relative to: no-protein control
Direction: higher = stronger binding
Target sequence (chain): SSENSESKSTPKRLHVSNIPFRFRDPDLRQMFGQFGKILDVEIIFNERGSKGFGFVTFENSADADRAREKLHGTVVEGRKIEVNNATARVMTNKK
Sequence | RBNS enrichment (R)
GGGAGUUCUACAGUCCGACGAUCAAUCAGUGAGGUUGAUUUUUCUUUUUUCCUACCGUUUCAUAGUCUUUGUCUAACUGCUAGUAACCCUACCGAGUUUUAUAUAUGAGUGGGAUACUCAAUCUGGCCUUAAAUGGAAUUCUCGGGUGCCAA | 0.808
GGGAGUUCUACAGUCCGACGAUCCCAGCACUCAGGAGGCAGAGGCAGGUGGAUCUUCGAGAUCAAGGCCAGCCUGGUCUAUAGAGUGAGUUCCAGGACAGCAGAGAAACCCUUCCAAAAACUAAGGAAGGAAGUGGAAUUCUCGGGUGCCAA | 0.286
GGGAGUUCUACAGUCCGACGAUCCCACAAACCAUUAUAAAACCCAACAUAUAUACUGAAAAUACUGAGAACUGCUUUGAAAAUUUGGAAUAUCUGAUAACUCCAGUGGGCCAAGACAUGGUGGAUAAAAAUGUUGGAAUUCUCGGGUGCCAA | 0.446
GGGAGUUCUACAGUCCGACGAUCGUGCUUCCCUCAGCUGAGCCGCCACCUCCAGGAACCCGUUCCUACUUUAGAGCUAGGAUGAGGGCACCUCUCCUCCUCCAUGGAUCACCAAGGGGGCUCUUGCAUUGAGCUGGAAUUCUCGGGUGCCAA | 0.282
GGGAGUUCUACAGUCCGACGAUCCCCCUCCAGCCAGGACUCUCCUACAUGUGGCCCCCAUAGGCCUCUGUGGCUGCAAGGCGGUCAGUUGCUGCUUGUCCCAGCAGGUGGCCUUGAUCUCUCCAUGCCCCACCUGGAAUUCUCGGGUGCCAA | 0.385
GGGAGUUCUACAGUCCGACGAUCUUUUGCACUGUUUGUUCCCCGCUGUGUUUUGAGCUAGAACAAGGAGUUGCCUGGGAUUGGGAGCUGUGGGUGGUGCAAGUCAGGGAGUGGGCCAGGAGAGGCCCGGGUUUUGGAAUUCUCGGGUGCCAA | 1.37
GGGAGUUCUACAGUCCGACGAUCGCAUCUCACGAGAGUCCCUCAGGCUCUGCAACACUAGAUUCGAAUAUGAGCCUAGGGUUUCCCCAACACGUGCGUGCAUAUGAAACCACAUCAUGAUUCCCGACGUGAGUUGGAAUUCUCGGGUGCCAA | 0.311
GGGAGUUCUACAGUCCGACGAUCGAGUCCUGGAGUUAACCAUGAAGAAAACUCUGACUUAGCACUCAGAGGCAUACACUUUUUACAGAUGGACAAAAGCUCUGGAACCCUGUGGCUUCAAAUCCUUUGGGAAGUGGAAUUCUCGGGUGCCAA | 0.237

Excerpt of the above (sample 2):
Sequence | log2 enrichment
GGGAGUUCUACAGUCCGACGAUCAAGUCCUGUGCUACACAUCGUAUGUACCGAAUCGGUUUUUGGAAAAAAAGGAAAGGAAAGUAUUAUGUUACGCCGUUCGGAUCUGCACUUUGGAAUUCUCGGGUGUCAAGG | -1.14
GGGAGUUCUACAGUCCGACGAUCUGGCCCUGGUGGCAUGCGGGGAGGAAGAGAUGGCCUCAUGGAUCGUGGUGGUCCCGGUGGAAUGUUCAGAGGUGGCCGUGGUGGAGACAGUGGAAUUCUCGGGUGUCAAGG | -0.111
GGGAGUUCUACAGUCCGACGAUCUGGCCCUGGUGGCAUGCGGGGAGGAAGAGGUGGCCUCAUGGAUCGUGGUGGUCCCGGUGGAAUGUUCAGAGGUGGUCGUGGUGGAGACAGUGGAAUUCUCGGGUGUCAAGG | 0.214
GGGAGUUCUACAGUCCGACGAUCUGGCCCUGGUGGCAUGCGGGGAAGAAGAGGUGGCCUCAUGGAUCGUGGUGGUCCCGGUGGAAUGUUCAGAGGUGGCCGUGGUGGAGACAGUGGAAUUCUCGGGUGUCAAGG | 0.0881
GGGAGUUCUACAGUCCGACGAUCAGUCCUGUGCUACACAUCGUAUGUACCGAAUCGGGUUUUUUUGGGAGGGAAAAAGGGAAAGUAUUAUGUUACGCCGUUCGGAUCUGCACUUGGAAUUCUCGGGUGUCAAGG | 0.361
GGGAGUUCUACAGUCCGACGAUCAGUCCUGUGCUACACAUCGUAUGUACCGAAUCGGGCCCCCGGGCCCCCGGCCCCCGGAAAGUAUUAUGUUACGCCGUUCGGAUCUGCACUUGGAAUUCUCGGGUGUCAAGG | -0.395
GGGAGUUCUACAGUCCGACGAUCACCAUGCGGGUGGGCAUCUUUGGGAAGUGGGGCAAGGGGGGGAUAGGGAGGGGGGUAACACUUUGGGAACAGGUGGUCCCAGGUCGUUUCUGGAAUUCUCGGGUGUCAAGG | 0.422
